Results of several laboratories.
Parts stem from different laboratories: compare values within a part only. Values joined by “and” are separate records of one study, mostly repeats; a detail may differ.
Chain of UniProt P23458 (whole entry, looked up): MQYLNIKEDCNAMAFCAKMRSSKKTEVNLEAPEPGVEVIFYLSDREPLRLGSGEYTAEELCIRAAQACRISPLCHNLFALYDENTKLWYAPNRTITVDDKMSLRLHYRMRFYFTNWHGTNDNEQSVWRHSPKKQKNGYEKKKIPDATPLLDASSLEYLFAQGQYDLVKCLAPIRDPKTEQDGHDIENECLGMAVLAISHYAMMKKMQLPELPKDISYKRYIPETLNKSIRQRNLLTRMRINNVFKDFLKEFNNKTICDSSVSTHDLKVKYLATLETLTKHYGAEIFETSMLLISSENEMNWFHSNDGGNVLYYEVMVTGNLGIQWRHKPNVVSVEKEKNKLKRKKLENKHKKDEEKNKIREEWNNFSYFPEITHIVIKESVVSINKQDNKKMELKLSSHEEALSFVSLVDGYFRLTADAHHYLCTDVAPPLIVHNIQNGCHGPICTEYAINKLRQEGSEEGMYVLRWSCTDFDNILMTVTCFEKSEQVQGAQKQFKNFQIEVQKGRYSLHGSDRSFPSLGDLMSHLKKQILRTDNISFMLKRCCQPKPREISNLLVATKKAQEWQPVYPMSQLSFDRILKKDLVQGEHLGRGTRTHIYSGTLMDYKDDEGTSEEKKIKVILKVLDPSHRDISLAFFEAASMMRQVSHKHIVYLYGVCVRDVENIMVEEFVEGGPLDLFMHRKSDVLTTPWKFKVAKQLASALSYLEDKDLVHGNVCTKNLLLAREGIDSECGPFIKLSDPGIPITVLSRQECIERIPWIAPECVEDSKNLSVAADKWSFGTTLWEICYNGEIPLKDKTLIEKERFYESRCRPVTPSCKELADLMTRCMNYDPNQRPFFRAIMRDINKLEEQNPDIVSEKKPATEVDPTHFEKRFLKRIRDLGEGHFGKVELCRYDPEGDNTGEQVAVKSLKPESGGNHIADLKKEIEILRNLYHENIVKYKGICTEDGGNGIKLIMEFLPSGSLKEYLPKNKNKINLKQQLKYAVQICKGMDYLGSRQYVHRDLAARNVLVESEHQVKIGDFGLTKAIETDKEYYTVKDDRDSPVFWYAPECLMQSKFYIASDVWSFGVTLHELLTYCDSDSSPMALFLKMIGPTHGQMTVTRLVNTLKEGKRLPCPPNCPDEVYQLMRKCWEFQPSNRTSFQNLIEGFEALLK
Chain of UniProt P42680 (whole entry, looked up): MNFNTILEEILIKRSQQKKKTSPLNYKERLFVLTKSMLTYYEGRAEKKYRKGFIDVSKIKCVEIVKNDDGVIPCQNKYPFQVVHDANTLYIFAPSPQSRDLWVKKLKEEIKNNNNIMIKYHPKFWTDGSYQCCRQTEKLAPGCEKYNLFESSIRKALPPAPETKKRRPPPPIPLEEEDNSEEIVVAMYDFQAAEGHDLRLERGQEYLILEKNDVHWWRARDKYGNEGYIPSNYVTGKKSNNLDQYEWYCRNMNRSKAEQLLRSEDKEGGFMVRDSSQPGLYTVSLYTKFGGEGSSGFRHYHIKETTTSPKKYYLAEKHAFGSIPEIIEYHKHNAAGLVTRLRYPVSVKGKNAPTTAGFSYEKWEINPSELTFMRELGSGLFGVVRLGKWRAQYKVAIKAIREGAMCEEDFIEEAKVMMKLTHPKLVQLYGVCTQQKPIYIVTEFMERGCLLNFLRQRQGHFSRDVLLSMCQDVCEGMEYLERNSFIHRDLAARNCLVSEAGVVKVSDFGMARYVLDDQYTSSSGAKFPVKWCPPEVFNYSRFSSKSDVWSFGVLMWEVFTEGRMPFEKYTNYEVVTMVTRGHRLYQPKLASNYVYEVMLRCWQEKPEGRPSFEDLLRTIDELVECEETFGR
Chain of UniProt P08069 (whole entry, looked up): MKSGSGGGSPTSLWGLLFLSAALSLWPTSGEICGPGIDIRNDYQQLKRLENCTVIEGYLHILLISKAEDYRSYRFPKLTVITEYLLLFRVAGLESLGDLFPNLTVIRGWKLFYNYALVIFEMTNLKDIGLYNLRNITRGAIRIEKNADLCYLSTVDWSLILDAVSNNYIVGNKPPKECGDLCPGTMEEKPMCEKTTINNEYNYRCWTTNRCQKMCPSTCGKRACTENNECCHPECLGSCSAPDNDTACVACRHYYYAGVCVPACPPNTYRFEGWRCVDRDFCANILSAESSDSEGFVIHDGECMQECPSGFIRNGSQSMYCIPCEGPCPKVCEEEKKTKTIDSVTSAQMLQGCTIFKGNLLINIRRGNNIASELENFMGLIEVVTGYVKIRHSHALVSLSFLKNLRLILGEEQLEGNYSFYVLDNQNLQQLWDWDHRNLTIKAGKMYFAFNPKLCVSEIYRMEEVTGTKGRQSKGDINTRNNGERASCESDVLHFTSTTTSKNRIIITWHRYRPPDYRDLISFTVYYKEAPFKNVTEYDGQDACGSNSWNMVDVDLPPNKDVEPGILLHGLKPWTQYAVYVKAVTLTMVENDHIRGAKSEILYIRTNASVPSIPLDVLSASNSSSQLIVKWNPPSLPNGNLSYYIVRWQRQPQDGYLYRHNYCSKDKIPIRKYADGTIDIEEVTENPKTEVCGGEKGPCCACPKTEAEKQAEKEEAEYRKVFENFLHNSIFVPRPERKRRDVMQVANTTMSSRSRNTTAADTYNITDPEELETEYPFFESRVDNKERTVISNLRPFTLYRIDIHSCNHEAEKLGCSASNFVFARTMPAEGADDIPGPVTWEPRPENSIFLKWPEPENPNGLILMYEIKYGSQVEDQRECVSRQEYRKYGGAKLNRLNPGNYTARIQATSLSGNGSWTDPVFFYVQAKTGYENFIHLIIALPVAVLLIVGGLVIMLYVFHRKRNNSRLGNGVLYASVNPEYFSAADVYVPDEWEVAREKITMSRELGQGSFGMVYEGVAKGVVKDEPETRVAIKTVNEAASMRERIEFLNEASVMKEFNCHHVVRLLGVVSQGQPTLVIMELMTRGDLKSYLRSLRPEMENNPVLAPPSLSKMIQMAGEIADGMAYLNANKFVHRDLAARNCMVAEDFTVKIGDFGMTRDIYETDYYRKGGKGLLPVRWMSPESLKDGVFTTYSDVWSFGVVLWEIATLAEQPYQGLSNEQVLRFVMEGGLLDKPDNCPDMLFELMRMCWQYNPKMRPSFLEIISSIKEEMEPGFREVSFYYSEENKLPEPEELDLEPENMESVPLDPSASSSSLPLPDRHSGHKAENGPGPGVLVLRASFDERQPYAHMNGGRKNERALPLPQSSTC
Chain of UniProt P54753 (whole entry, looked up): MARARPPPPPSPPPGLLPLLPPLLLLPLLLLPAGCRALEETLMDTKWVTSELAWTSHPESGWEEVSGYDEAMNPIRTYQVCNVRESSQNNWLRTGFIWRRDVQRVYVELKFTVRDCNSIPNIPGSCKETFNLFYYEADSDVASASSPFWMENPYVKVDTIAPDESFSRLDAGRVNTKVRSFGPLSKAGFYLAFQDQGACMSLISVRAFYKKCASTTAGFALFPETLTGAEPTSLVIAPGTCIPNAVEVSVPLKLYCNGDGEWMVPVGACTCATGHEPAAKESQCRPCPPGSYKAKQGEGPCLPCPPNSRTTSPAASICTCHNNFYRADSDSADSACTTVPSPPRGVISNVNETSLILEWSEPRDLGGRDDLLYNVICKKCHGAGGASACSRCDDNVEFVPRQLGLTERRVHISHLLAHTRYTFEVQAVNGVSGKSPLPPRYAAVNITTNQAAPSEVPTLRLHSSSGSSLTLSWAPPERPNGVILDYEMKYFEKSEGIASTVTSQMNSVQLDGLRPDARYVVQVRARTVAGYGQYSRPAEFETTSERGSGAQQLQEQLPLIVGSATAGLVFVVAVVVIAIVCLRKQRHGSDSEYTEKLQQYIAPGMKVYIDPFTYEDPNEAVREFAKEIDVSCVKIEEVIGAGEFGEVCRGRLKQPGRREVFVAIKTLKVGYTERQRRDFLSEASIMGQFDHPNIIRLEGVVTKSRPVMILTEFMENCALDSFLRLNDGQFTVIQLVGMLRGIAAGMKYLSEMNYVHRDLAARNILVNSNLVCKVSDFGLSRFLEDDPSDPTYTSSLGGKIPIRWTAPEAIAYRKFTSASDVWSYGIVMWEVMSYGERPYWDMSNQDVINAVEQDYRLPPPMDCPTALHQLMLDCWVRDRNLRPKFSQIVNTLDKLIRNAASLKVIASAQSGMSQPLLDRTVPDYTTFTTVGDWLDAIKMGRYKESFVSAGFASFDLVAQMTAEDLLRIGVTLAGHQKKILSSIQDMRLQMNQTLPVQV
Chain of UniProt Q96SB4 (whole entry, looked up): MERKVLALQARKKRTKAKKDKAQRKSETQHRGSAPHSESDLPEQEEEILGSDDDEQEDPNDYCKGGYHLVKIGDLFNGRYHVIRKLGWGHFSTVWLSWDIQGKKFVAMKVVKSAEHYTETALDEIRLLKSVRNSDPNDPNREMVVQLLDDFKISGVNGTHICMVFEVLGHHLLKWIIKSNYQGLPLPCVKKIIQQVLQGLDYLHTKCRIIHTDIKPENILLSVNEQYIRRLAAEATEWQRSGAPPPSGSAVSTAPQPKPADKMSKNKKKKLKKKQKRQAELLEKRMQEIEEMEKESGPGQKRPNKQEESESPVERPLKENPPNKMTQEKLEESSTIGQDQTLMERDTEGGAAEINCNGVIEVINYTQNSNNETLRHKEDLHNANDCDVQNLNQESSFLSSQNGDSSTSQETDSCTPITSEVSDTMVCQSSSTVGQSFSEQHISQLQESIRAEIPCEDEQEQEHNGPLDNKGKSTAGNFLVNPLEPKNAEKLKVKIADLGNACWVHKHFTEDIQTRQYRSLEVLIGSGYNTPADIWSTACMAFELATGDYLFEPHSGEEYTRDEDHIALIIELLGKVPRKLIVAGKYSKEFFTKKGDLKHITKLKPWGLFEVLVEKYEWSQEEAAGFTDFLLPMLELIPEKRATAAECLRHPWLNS

Set 1
Structure (SMILES): O=C(Nc1cnc(Oc2ccc(F)cc2)nc1)N1CCc2ncccc2[C@@H]1c1ccc(F)cc1
Technique: competition with immobilised ligand
Concentration: 1 µM
For GRK2 (Homo sapiens, UniProt P25098); cell-free assay: remaining binding read 90%.
For IGF1R (Homo sapiens, UniProt P08069); cell-free assay: remaining binding read 100%.
CDK7 (Homo sapiens, UniProt P50613); cell-free assay — remaining binding: 100%.
For PIK3CA (Homo sapiens, UniProt P42336, E545A); cell-free assay: remaining binding read 98%.
It gave 87% for remaining binding (MAP4K3 (Homo sapiens, UniProt Q8IVH8); cell-free assay).
It gave 100% for remaining binding (PTK2B (Homo sapiens, UniProt Q14289); cell-free assay).
For BRAF (Homo sapiens, UniProt P15056); cell-free assay: remaining binding read 74%.
ANKK1 (Homo sapiens, UniProt Q8NFD2); cell-free assay — remaining binding: 100%.
It gave 100% for remaining binding (EPHB6 (Homo sapiens, UniProt O15197); cell-free assay).
EPHB3 (Homo sapiens, UniProt P54753); cell-free assay — remaining binding: 100%.
The remaining binding was 94% (RET (Homo sapiens, UniProt P07949, V804M); cell-free assay).
It gave 100% for remaining binding (PIP5K1A (Homo sapiens, UniProt Q99755); cell-free assay).
PRKACB (Homo sapiens, UniProt P22694); cell-free assay — remaining binding: 85%.
LATS1 (Homo sapiens, UniProt O95835); cell-free assay — remaining binding: 100%.
FLT3 (Homo sapiens, UniProt P36888, N841I); cell-free assay — remaining binding: 88%.
It gave 71% for remaining binding (STK35 (Homo sapiens, UniProt Q8TDR2); cell-free assay).
CDK4 (Homo sapiens, UniProt P11802); cell-free assay — remaining binding: 100%.
For CDK9 (Homo sapiens, UniProt P50750); cell-free assay: remaining binding read 93%.
The remaining binding was 89% (TEC (Homo sapiens, UniProt P42680); binding).
RIPK2 (Homo sapiens, UniProt O43353); cell-free assay — remaining binding: 93%.
Tyrosine-protein kinase JAK1, JH2 (JAK1, Homo sapiens, UniProt P23458); cell-free assay — remaining binding: 96%.
The remaining binding was 100% (SRPK3 (Homo sapiens, UniProt Q9UPE1); cell-free assay).

Set 2
Cell line: A-375
Concentration: 100 µM
Time: 36 h
The viability of `CCCc1nc2c(C)cc(-c3nc4ccccc4n3C)cc2n1Cc1ccc(-c2ccccc2C(=O)O)cc1` is reported as 68%.
The viability of `N#C[C@@H]1CCCN1C(=O)CNC12CC3CC(CC(O)(C3)C1)C2` is reported as 97.3%.
With `O=C(O)c1ccccc1Nc1cccc(C(F)(F)F)c1` the viability was 95%.
`CCCC1O[C@@H]2C[C@H]3[C@@H]4CCC5=CC(=O)C=C[C@]5(C)[C@H]4[C@@H](O)C[C@]3(C)[C@]2(C(=O)CO)O1` (stereo partly shown) has a viability of 38.6%.
For `CCc1cccc2c3c([nH]c12)C(CC)(CC(=O)O)OCC3` (stereo not shown), the viability was 115%.
For `CC(C)c1nc(N(C)S(C)(=O)=O)nc(-c2ccc(F)cc2)c1/C=C/[C@@H](O)C[C@@H](O)CC(=O)O`, the viability was 57.6% and 96.7%.
The viability of `CCN(Cc1ccncc1)C(=O)C(CO)c1ccccc1` (stereo not shown) is reported as 106%.
`CC(C(=O)O)c1cccc(Oc2ccccc2)c1` (stereo not shown) gave a viability of 68%.
`CNS(=O)(=O)Cc1ccc2[nH]cc(CCN(C)C)c2c1` has a viability of 86.1%.
For `N[C@@H]1CON=C1O`, the viability was 119%.
For `CCOc1nc2cccc(C(=O)OCc3oc(=O)oc3C)c2n1Cc1ccc(-c2ccccc2-c2noc(=O)[nH]2)cc1`, the viability was 102%.
`CC(C)(C)NCC(O)c1ccc(O)c(CO)c1` (stereo not shown) gave a viability of 45.2%.
The viability of `CCCCCCCCCCCCCCCCCCCCCCO` is reported as 81%.

Set 3
Structure (SMILES): NC(=O)c1cccc(-c2cc(Nc3ccc(OC(F)(F)F)cc3)ncn2)c1
Observed: enzyme activity
Mode: inhibitor
Concentration: 0.5 µM
Relative to: control
SIK2 (Homo sapiens, UniProt Q9H0K1) — remaining activity: 108%.
The remaining activity was 98.4% (FLT1 (Homo sapiens, UniProt P17948)).
PAK1 (Homo sapiens, UniProt Q13153) — remaining activity: 93.3%.
The remaining activity was 104% (PRKCQ (Homo sapiens, UniProt Q04759)).
It gave 98% for remaining activity (SRPK1 (Homo sapiens, UniProt Q96SB4)).
For EPHA2 (Homo sapiens, UniProt P29317): remaining activity read 94.9%.
The remaining activity was 99.1% (CSNK1D (Homo sapiens, UniProt P48730)).
It gave 115% for remaining activity (CLK1 (Homo sapiens, UniProt P49759)).
The remaining activity was 139% (TEC (Homo sapiens, UniProt P42680)).
The remaining activity was 93.1% (CLK2 (Homo sapiens, UniProt P49760)).
For SGK2 (Homo sapiens, UniProt Q9HBY8): remaining activity read 116%.
It gave 103% for remaining activity (CSNK1E (Homo sapiens, UniProt P49674)).
The remaining activity was 91% (IGF1R (Homo sapiens, UniProt P08069)).
For MAP3K20 (Homo sapiens, UniProt Q9NYL2): remaining activity read 102%.
MUSK (Homo sapiens, UniProt O15146) — remaining activity: 95.9%.
For JAK1 (Homo sapiens, UniProt P23458): remaining activity read 98.9%.
It gave 97.5% for remaining activity (CAMK1 (Homo sapiens, UniProt Q14012)).
For Cyclin-dependent kinase 2, with cyclin E (CDK2, Homo sapiens, UniProt P24941): remaining activity read 86.6%.
It gave 101% for remaining activity (RPS6KA3 (Homo sapiens, UniProt P51812)).

Mixed results
`CC1=C(/C=C/C(C)=C/C=C/C(C)=C/C(=O)O)C(C)(C)CCC1`: “relative cell number” 1.11 and 0.937 and 1.12 (HuT78; trypan blue; concentration not given, day 0; relative to: untreated control).

Some of these lines once more (set 3):
For MAP3K20 (Homo sapiens, UniProt Q9NYL2): remaining activity read 102%.
It gave 97.5% for remaining activity (CAMK1 (Homo sapiens, UniProt Q14012)).
It gave 115% for remaining activity (CLK1 (Homo sapiens, UniProt P49759)).
The remaining activity was 98.4% (FLT1 (Homo sapiens, UniProt P17948)).
The remaining activity was 91% (IGF1R (Homo sapiens, UniProt P08069)).
It gave 98% for remaining activity (SRPK1 (Homo sapiens, UniProt Q96SB4)).
PAK1 (Homo sapiens, UniProt Q13153) — remaining activity: 93.3%.
